Published values collected from several papers.
A part holds a random share of what one study measured. Positions count from the first letter of the parent shown.

Block 1 — technique: protein binding microarray; molecule type: double-stranded DNA, one strand shown; sample: in vitro; tested at: not given; baseline: not given; direction: higher = stronger binding
Target: Histone acetyltransferase KAT6A, both winged helices, GST fusion (KAT6A, Homo sapiens, UniProt Q92794, residues 1-181)
Notes: 8-mer, flanks averaged, mean of 2 arrays, mostly near background
Construct (chain): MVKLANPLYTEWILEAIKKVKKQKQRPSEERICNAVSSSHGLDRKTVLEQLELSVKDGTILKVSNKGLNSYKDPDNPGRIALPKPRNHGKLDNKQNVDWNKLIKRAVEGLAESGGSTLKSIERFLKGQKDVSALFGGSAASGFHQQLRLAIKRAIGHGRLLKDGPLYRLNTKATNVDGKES
Sequence	E-score
GAGAAACC	-0.0467
CGTCCGCA	0.223
CAAGAGGA	-0.196
AGGATGAC	-0.0272
CCCTATAC	-0.109
GATGGCCA	-0.0207
GCTCTAAC	0.00184
TAAGTGAA	-0.151
CAATGCGG	0.136
GGCCAGAA	-0.173
CGTACACC	0.123
AGGGGCCA	-0.321
CCCCTGAG	-0.246
ACAGTACA	-0.0229
CCAGCGTA	0.0963
CGCCGTAG	0.349

Block 2 — technique: RNA Bind-n-Seq; molecule type: RNA; sample: in vitro; tested at: 100 nM; baseline: input RNA pool; direction: higher = stronger binding
Target: RING finger protein unkempt homolog, zinc fingers 1-6, SBP tag (UNK, Homo sapiens, UniProt Q9C0B0, residues 30-357)
Chain of UniProt Q9C0B0 (30-357, looked up): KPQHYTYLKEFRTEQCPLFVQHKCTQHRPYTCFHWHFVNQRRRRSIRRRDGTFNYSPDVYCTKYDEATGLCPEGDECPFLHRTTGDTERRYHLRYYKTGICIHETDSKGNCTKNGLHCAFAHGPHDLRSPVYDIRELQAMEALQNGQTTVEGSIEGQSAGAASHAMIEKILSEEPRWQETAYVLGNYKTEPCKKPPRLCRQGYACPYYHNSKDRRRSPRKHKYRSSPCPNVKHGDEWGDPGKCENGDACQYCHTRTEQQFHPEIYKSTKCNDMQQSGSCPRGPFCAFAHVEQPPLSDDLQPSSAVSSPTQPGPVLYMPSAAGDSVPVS
Notes: RNA with constant flanks, vertebrate orthologous sites, ends assumed
Shared flanks, not repeated: GGGAGUUCUACAGUCCGACGAUC … CAACAGAGGAUUGAGCAUCA
Sequence	bound/input enrichment
AGCAAGCCAAGGAUUCAGAACUGGUUUUACAAAUAUACCAAGUAGAUACGGAACUAACAGCAGAAUUGGACAAUCAAGACCAUGAUGGACACUUAACUUAUUUCUACGAGGAAUACUGAC	0.576 ratio
AAAAUAGCAUAGGAGGUUGUGGUGUUUUUGUUUUUUUUAAAAAGGAGCAAUUGGAGAGAGAAGAUACAACUAUCAAGAGCCAGGUGGAUAAAAAGCACAGAUGAAGAUCAUUGAAACUCA	0.905 ratio
GGGACGCUUUGAGGUAAAAAUUUUAAUUAAGAGCUGAUCACAAGCACAAAUCUUUCCCACUAGCCAUUUAAUAAGUUAAAAAAGAUACACAAACCUACUAGUCUUGAACAAACUGUCAUA	2.01 ratio
UGUGUUUUGGUACGACUCUAUGUACCAAUACUCAUCCUUUUUCAUGAUACCAACUAUCGCUAGAUGUAGGAGUUUAAUAUUUUUAAAAAUUUUACAUUGCUGUAUAUUCAAAAUUUUAAA	0.462 ratio
UUGGGAGCAGCCCUUCAAACAGAAAUAGUAGUAAAAAAACCAAACAAAAUGAUACUUGCGUAGAAAAAACAGAAGUUAAAUCAUGGAAAGUAAAUGCUGCCAGUGUUCCAGGCCCUAAAG	0.712 ratio
UCCUCUGAACCCCAUAUCUUCUGUUUCAUAAUGCAGAAGUGUUCUUUUGAAUUAUAUUAGUGGACUUGUUUUAAUUUUAGAAAAACUUCCAGUAAGAUACUGUGGGCUAAUAUGGAAAAA	1.95 ratio
UUGUUUGUUUUGCUUAAGAGUUUGUAUUAAAAGUCUUCGAAGGAAGGAAUAGGGAUACUGUAGCAGUGGUCCCCAGGUGCCUGGCCUCCAGUGCCCCACUUGGAACCACCCUGUCAGGGU	0.284 ratio
ACACUUAUAUUGUGGCAUAUAGUCAACAUGGAAGUAGACCAGCUCUGCUGAUUUGAAAUUUAGAUUUUUUAAAUUAUGUACUGGGGACAGGUUUUUGUCGCUUUACAUUGCUUCCUAGUU	2.2 ratio
AGUGCUGAAUAGUAUUAAACGUUUUCGUCUUCCUUUACCUUUUAUCCCCUACCUAAUAUCUAGUCUACUUUUUUAAAUUUCAAAUUUCACUGCUCUUUGAAUUGAUAAUUUCAAUUUUCA	7.16 ratio
UCCCAGCACUUUGAUAAAAAGCGUGGACUGGUUGCUUGUAUUUUCCUUAUUCUUUUUAAUUAGUUUUAUUAUGUAUGCUACCAUUCGAACUGAGAGCAUUCGGUGGCUAAUUCCAGGACA	1.77 ratio
AAAGAUUGGGUUCCAGUCAAAUGAGCUGGCAUUGUACAGAAAAUCACAGCCAAUCUUAGAAUUUUUUUUUCGCAGUCUGACCAGGGAAAAGAUAAAAUGCAUUGUAUUAAAUAUGUAAGC	0.875 ratio

Block 3 — target: UBE2D1 UBC core domain (UniProt P51668); technique: yeast two-hybrid; sample: yeast; notes: mostly zero background; baseline: not given; direction: higher = stronger interaction
B1: UHRF2 RING domain (UniProt Q96PU4); chain CGGDPEKKCHSCSCRVCGGKHEPNMQLLCDECNVAYHIYCLNPPLDKVPEEEYWYCPSCKTDSSEVVKAGER
B2: RNF170 RING domain (UniProt Q96K19); chain TRQQFYTDMYCPICLHQASFPVETNCGHLFCGACIIAYWRYGSWLGAISCPICRQTVTLLLTVF
B3: IRF2BPL RING domain (UniProt Q9H1B7); chain SPMANSGPLCCTICHERLEDTHFVQCPSVPSHKFCFPCSRESIKAQGATGEVYCPSGEKCPLVGSNVP
B4: CUL9 RING domain (UniProt Q8IWT3); chain AQAVPVRPDHCPVCVSPLGCDDDLPSLCCMHYCCKSCWNEYLTTRIEQNLVLNCTCPIADCPAQPTGAFIR
B5: PHF21A RING domain (UniProt Q96BD5); chain SPTSTDGDIHEDFCSVCRKSGQLLMCDTCSRVYHLDCLDPPLKTIPKGMWICPRCQDQMLKKEEAIPW
B6: MID1 RING domain (UniProt O15344); chain METLESELTCPICLELFEDPLLLPCAHSLCFNCAHRILVSHCATNESVESITAFQCPTCRHVITLSQRGL
B7: TRIM69 RING domain (UniProt Q86WT6); chain VIQDITMELHCPLCNDWFRDPLMLSCGHNFCEACIQDFWRLQAKETFCPECKMLCQYNNCTF
B8: RC3H2 RING domain (UniProt Q9HBD1); chain QAAQWTEFLSCPICYNEFDENVHKPISLGCSHTVCKTCLNKLHRKACPFDQTAINTDIDVL
Target sequence (chain): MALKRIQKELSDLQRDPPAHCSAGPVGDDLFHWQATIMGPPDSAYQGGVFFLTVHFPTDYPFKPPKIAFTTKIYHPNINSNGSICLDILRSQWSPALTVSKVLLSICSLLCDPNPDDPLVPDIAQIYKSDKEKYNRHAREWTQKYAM
Sequence	lacZ reporter activity
B1 (UHRF2 RING domain)	0
B2 (RNF170 RING domain)	0
B3 (IRF2BPL RING domain)	0
B4 (CUL9 RING domain)	0
QLQDIKEQTMCPVCLDRLKNMIFLCGHGTCQLCGDRMSECPICRKAIERRILLY (MIB1 RING domain (UniProt Q86YT6))	11700
B5 (PHF21A RING domain)	0
DAIPSLSECQCGICMEILVEPVTLPCNHTLCKPCFQSTVEKASLCCPFCRRRVSSWTRYH (RNF168 RING domain (UniProt Q8IYW5))	0
B6 (MID1 RING domain)	0
B7 (TRIM69 RING domain)	0
B8 (RC3H2 RING domain)	0
FASPPDSNFVCSVCHGVLKRPARLPCSHIFCKKCILRWLARQKTCPCCRKEVKRKKVVH (RNF151 RING domain (UniProt Q2KHN1))	0
VTLSLTLPITCHICLGKVRQPVICINNHVFCSICIDLWLKNNSQCPACRVPITPENPCK (OBI1 RING domain (UniProt Q5W0B1))	0

Block 4 — technique: RNA Bind-n-Seq; molecule type: RNA; sample: in vitro; tested at: 20 nM; notes: 6-mer, flanks averaged, single round; with: 150 mM KCl; baseline: input library; direction: higher = stronger binding
Target: TAR DNA-binding protein 43, full length, His tag (TARDBP, Homo sapiens, UniProt Q13148, residues 1-414)
Sequence	6-mer enrichment (R)
CGGUCG	1.26
GUAAGG	1.75
GACGCA	0.913
GUCUCU	0.61
CUACUG	0.653
CAUCGC	0.637
AAAGGG	2.04
GUGUGU	2.16
AGCCCC	0.685
GACCUA	0.678
AACAGA	0.709
GGCACG	2.03
CCAUAA	0.632
CUCAUC	0.537
GGCUAA	1.04

Block 5 — technique: DHFR PCA, deep sequencing; sample: yeast; with: (+)-ABA 200 µM; baseline: wild-type fitted maximum; direction: higher = stronger binding
Target: ABI1, truncated, D143A, DHFR fusion (Arabidopsis thaliana)
Notes: methotrexate growth selection, single substitutions
Starting sequence: PYL1, truncated, DHFR fusion (Arabidopsis thaliana); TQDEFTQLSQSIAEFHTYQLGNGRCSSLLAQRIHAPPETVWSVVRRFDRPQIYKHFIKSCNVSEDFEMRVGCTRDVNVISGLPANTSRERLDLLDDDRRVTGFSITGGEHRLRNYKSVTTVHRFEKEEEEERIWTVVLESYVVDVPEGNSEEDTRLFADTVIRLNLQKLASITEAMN
Change	relative binding score [%]
N114V	-16
N165A	11.5
Q31S	55.9
L29Q	91.5
R46N	76.9
E109D	114
T73G	82.4
T39M	100
V145R	64.7
T86F	95.5
Q10A	94.5
F5P	88.8
V161G	-6.18
F124M	110

Block 6 — technique: RNA Bind-n-Seq; molecule type: RNA; sample: in vitro; tested at: 200 nM; notes: whole 134-nt RNA, ends assumed; with: 150 mM LiCl; baseline: input library; direction: higher = stronger binding; all molecules: 7-deaza-guanosine replaces G
Target: Ras GTPase-activating protein-binding protein 1, full length (G3BP1, Homo sapiens, UniProt Q13283)
Chain of UniProt Q13283 (whole entry, looked up): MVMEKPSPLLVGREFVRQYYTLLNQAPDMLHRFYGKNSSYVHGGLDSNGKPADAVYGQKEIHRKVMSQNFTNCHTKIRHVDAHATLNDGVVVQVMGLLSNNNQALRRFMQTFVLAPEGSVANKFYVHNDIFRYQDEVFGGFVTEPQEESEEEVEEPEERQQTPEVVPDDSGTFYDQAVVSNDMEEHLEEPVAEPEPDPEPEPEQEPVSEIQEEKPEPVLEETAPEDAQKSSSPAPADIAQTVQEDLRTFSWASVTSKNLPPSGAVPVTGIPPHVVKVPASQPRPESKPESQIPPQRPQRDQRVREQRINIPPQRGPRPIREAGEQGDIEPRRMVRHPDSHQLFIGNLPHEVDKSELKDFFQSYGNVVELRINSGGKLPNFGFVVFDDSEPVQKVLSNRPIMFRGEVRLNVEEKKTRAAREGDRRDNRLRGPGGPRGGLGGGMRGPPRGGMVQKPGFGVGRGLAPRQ
Shared flanks, not repeated: GGGAGUUCUACAGUCCGACGAUC … UGGAAUUCUCGGGUGUCAAGG
Sequence	log2 enrichment
CCUCAAGUCCUGUGCUACACAUCGUAUGUACCGAAUCGGUUUGGAGGUUUGGAAAGUAUUAUGUUACGCCGUUCGGAUCUGCACUUCCAG	-0.711
GUGCUACACAUCGUAUGUACCGAAUCGGGGAAAAAAAGGGGUUUUUUUGGGGUUUUUUUGGGGAAAGUAUUAUGUUACGCCGUUCGGAUC	-1.67
UCAAGUCCUGUGCUACACAUCGUAUGUACCGAAUCGGGCCCGGCCCGGCCCGGGGAAAGUAUUAUGUUACGCCGUUCGGAUCUGCACUUC	-0.849
ACCAUGCAGGUGGGCAUCUUUGGGAAGUGGGGCAAGGGGGGGAUAGGGAGGGGGGUAACACUUUGGGAACAGGUGGUCCCAGGUCGUUGC	0.106
CUGUGCUACACAUCGUAUGUACCGAAUCGGGGUUUUUUUGGGGAAAAAGGGGUUUUUGGGGAAAGUAUUAUGUUACGCCGUUCGGAUCUG	-1.55
AAGUCCUGUGCUACACAUCGUAUGUACCGAAUCGGGAAAAAAAGGGAGGGAAAGGGAAAGUAUUAUGUUACGCCGUUCGGAUCUGCACUU	-0.342
CCUGUGCUACACAUCGUAUGUACCGAAUCAAAGUGUGUGUGUGUAAAGUGUGUGUGUAAAAAAGUAUUAUGUUACGCCGUUCGGAUCUGC	-0.978
UCAAGUCCUGUGCUACACAUCGUAUGUACCGAAUCGGAGGUUUUUUUGGUUUGGAAAGUAUUAUGUUACGCCGUUCGGAUCUGCACUUCC	-1.36
CCUGUGCUACACAUCGUAUGUACCGAAUCGGGGCCCCCCGGGGCCCCCCGGGCCCCCCGGAAAGUAUUAUGUUACGCCGUUCGGAUCUGC	-1.38
AAGUCCUGUGCUACACAUCGUAUGUACCGAAUCGGGGAAAAAGGGGAGGGGUGGGGAAAGUAUUAUGUUACGCCGUUCGGAUCUGCACUU	0.0347
CAAGUCCUGUGCUACACAUCGUAUGUACCGAAUCGGUUUUUGGUGGAAAAAAAGGAAAGUAUUAUGUUACGCCGUUCGGAUCUGCACUUC	-1.04

Block 7 — target: CCNE1, cyclin fold, Cln2 fusion (human); technique: yeast growth competition, sequencing; sample: yeast; notes: strong parent motif; baseline: not given; direction: higher = stronger binding
Starting sequence: GMNC docking peptide (human); KNAKRNLSSEFAN
Change	normalised enrichment score
KNAKRCLSSEFAN [N6C]	0.224
KNAKCNLSSEFAN [R5C]	0.0623
KNAKRVLSSEFAN [N6V]	0.303
KNAKRNNSSEFAN [L7N]	0.0985
KNAKRNLSNEFAN [S9N]	1.51
KNAKRNLSSYFAN [E10Y]	0.397
KNEKRNLSSEFAN [A3E]	0.0505
KNAKRNLSHEFAN [S9H]	1.73
KNAKRPLSSEFAN [N6P]	0.0711
KNAKRNLSSEEAN [F11E]	-0.116

For quick reference, copied from above (block 1):
Sequence	E-score
GATGGCCA	-0.0207
GCTCTAAC	0.00184
TAAGTGAA	-0.151
CAATGCGG	0.136
GGCCAGAA	-0.173
CGTACACC	0.123
